Measurements from different studies.
Compare with care: the assays were run in different laboratories. Several values in a cell are separate wells, animals, samples, runs or records.
Target: cAMP-dependent protein kinase catalytic subunit PRKX (PRKX, Homo sapiens, UniProt P51817)

SMILES = CNC(=O)C[C@H](Cc1ccc(C#N)cc1)NC(=O)c1cc(-c2ccc(CN[C@H](C)c3ccc(C)cc3)o2)ccc1Cl; test = enzyme activity, inhibitor; setting = 1 µM; endpoint = activity vs control; value = 100%
SMILES = CN1CCN(Cc2ccc(-c3ccc(CO[C@H]4CCC[C@@H]4NC(=O)c4cc(-c5cnn(C)c5)cnc4N)cc3)cc2)CC1; test = enzyme activity, inhibitor; setting = 0.1 µM; endpoint = inhibition; value = 3%
SMILES = CNC1C[S+]2CC[S+]3CC[S+](C1)[Ru-4]321([N]=C=S)[n]2c3ccc(OC)cc3c3c4c(c5cc(F)c[n+]1c5c32)C(=O)NC4=O (stereo not shown); test = KinomeScan; setting = 0.1 µM; scale = relative to: untreated; endpoint = remaining binding; value = 87%
SMILES = C=CC(=O)N1Cc2nc(-c3cc(-c4cc(Cl)cnc4Cl)c(F)cc3F)n(-c3ccncn3)c2C1; test = cell-free assay, inhibitor; setting = 1 µM; endpoint = inhibition; value = 6.8%
SMILES = CC(C)=CC1OC(C)(C)C2C=C3C(=O)C(Cl)=CC(O)C3C3C(O)C4OC4C(=O)C132 (stereo not shown); test = cell-free assay, competition with immobilised ligand; setting = 10 µM; endpoint = remaining binding; value = 93%
SMILES = COC(=O)[C@@]1(C)C=C(C(=O)Nc2cccc(C(=O)Nc3ccc(Nc4nccc(-c5cccnc5)n4)c(C)c3)c2)C(=O)CC1; test = enzyme activity, inhibitor, radiometric; setting = 1 µM; endpoint = remaining activity; value = 102%
SMILES = COc1c(Cl)cccc1Nc1c(-c2ccncc2C#C[C@@]2(C)CCCN2C(=O)/C=C/CN(C)C)[nH]c2c1C(=O)NCC2; test = cell-free assay, competition with immobilised ligand; setting = 3 µM; endpoint = remaining binding; value = 100%
SMILES = NC(=O)[C@@H](O)C[C@H]1CCc2sc3ncnc(O[C@H]4CC[C@H](N5CCOCC5)CC4)c3c21; test = enzyme activity, inhibitor; setting = 10 µM; endpoint = inhibition; value = 5%
SMILES = Cc1ccc(-c2c(/C=C(\C#N)C(=O)NC(C)C)n(CCCO)c3ncnc(N)c23)cc1; test = cell-free assay, competition with immobilised ligand; setting = 1 µM; endpoint = remaining binding; value = 72%
SMILES = C=CC(=O)Nc1cccc(-c2cnc3[nH]cc(C(=O)NC(C)(C)C)c3n2)c1; test = kinase activity; setting = 0.1 µM; endpoint = inhibition; value = 2% and 3%
SMILES = CN1CC[C@@H](COc2cnc(C#N)cc2-c2ccn3nc(NC(=O)C4CC4)cc3c2)C1; test = enzyme activity, inhibitor; setting = 1 µM; endpoint = inhibition; value = 14%
SMILES = COc1cc(Nc2nccc(-c3cnn4nc(OC)ccc34)n2)cc(C(F)(F)F)c1; test = binding, competition with immobilised ligand; setting = 1 µM; endpoint = remaining binding; value = 100%
SMILES = Cc1cccc(O[C@H]2CCC[C@@H](C(C)CNCc3ccncc3)C2)c1 (relative stereo); test = enzyme activity, inhibitor; setting = 10 µM; endpoint = inhibition; value = 0%
SMILES = COc1ccc(NC(=O)Nc2ccc3c(c2)C(=O)N(C(C)CO)CC(C)C(CN(C)Cc2ccc4c(c2)OCO4)O3)cc1 (stereo not shown); test = kinase activity, KinaseProfiler; setting = 0.03 µM, species human; scale = relative to: control; endpoint = remaining activity; value = 99%
SMILES = CNC(=O)C1CCN(c2cc(C)c(F)cc2NC(=O)c2ccc(-c3cc(O)ccc3C)c(C)c2)CC1; test = binding, competition with immobilised ligand; setting = 1 µM; endpoint = remaining binding; value = 89%
SMILES = Nc1ncc2c(n1)-c1c([nH]c3ccc(C4=CCOCC4)cc13)CCC2; test = binding, competition with immobilised ligand; setting = 1 µM; endpoint = remaining binding; value = 98%
